Measured values of several laboratories.
Numbered parts are unrelated; each lists some results of a single study.

Sample 1 — technique: RNA Bind-n-Seq; molecule type: RNA; medium: in vitro; concentration: 365 nM; reference: no-protein control; reading: higher = stronger binding
Target: RNA binding protein fox-1 homolog 2, RRM domain, GST-SBP tag (RBFOX2, Homo sapiens, UniProt O43251-10, residues 100-194)
Setting: natural RNA segment, single round, ends assumed
Constant ends, left off below: GGGAGUUCUACAGUCCGACGAUC … UGGAAUUCUCGGGUGCCAA
Target sequence (chain): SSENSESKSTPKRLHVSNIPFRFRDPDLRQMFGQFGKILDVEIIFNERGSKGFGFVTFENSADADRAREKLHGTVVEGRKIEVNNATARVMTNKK
Strand	RBNS enrichment (R)
GUGGCGGGGUCCGCUGCUGGUCUAAUUUGGACCCCCUGCCUCUCAGUGCCCCUGCCCUAGGGGUGUCUGUCUCCAGAGGGGAGGGACAAAUCCCCUACUGGGGCCAUUUC	0.454
GAAGUUUUGUAGGACAUUCCUUCUAGUCACUGCGGACUCCUCACGAAUGCACACAGGUCUUCAGGGAGUUUGACUGUCCUUACCCAGAGUCCUCUCUGAUGCAGCUGACC	0.806
AUCUGUGUCAACCCUCUGCCUGCAGGGACAGAUAAAUGGAACUCUGGUUGUGAUAUCAUAACUAAGAUCAGUCACCUCCCAGGAGUCUGCAGAGUUCUAGGUACACCACC	1.31
GUUACCUGAGUGUGACACAGGCCCUGGGGUGUGCGUGUUUCUCUAACUGUCUACACGUGCACAUAGGCAGACUUUCUCAUAGAAUGUUCUUGAAAGGUGAUUGGCAAAGU	0.741
AAGCGAAUGGGUCAUUUCUAAAGAGACCAGGGAGCCCACUCCUCAUGGGCUCUCCGUGGUGAAGAACAAAGGGUACCCCAAUGGCCUCUCACCAUCACUGUCCUCCAGGG	0.284
GGGUGUCUCGGAGAGUUGCCAUAUCUCCUUGUGUGAAUUGCGUGCUUGGAAGCAAUUUUUAAAGGGAGUGGAAAGCUUAGGGAAAUCGUUUGUAUUUGGAGUCUUGCUGU	2.65
CUACCCACCUGGUGGACCCAGGGACUGAAGCAAUGGCACAGAGACCAUGACAGACUGUGCUCCUAUCCUGGGUUGAGUCCCGAUGCAUAUUCCUGCUUCAUUUCCUUUUC	0.519
ACAAAAAAUGUUUAAUUUAUGCAACAAGCAUGUUUGUGCAAAUUUCAUGGGACUUUAAAAAGAAUAAGUAUUUGAGAAAAUAUCUGGUUCACUUACACUACAUUUACUGU	5.59
AGGCAAGAGUACAGUAAGCCUAAGGGGACUUGCUGCUCAAACCAAAAAUUAACUCUGAAGGUCAGUCUACCUGACAUUACCUAGGCAUGGUGUUGUCCAAGCUGCGCAUC	2.03
CAGUGUGUGUCUGCUGGUCAUGUGCUGGUGCCAGUUGGGGAGGAAUCAGCUGUCUCGGUGGAUUCUGAGACUCACUGUGGGGCGGGAAGAAGGGUCUUCACUCUGCCAUU	0.305
CUCCAGAUGGGAAGGUUUUAAGAGUCACACUGGCAUGGAAGGCUUAUCUGCCAUUCUAUUUAUAGCCUGAAAUGAUUCUGGCCUACCCUGUCCUGUCUGUAUGAUCUAAA	0.327
GACAGCAGGGGAGGAGGAAGAGCUGUGGUUUGUAACUUGUUCAACUCAGGCAAUAAGCGAUUUUAGCUUUAUUUAAAGUCUUCUGUCCAGCUUUAAGCACUUUGUAAGAC	0.711

Sample 2 — technique: aptamer microarray, sandwich; molecule type: DNA with 2'F-ANA; medium: in vitro; concentration: 200 nM; with: Cy3 exosite-II aptamer, 400 nM; reading: higher = stronger binding; strand: GGTTGGTGTGGTTGG
Target: Prothrombin, mature alpha-thrombin (F2, Homo sapiens, UniProt P00734)
Setting: whole 15-mer aptamer, many near background
Modification	mean fluorescence intensity
2'F-ANA at 1 3 8 10 12	122 a.u.
2'F-ANA at 2 4 8 10 14	63.5 a.u.
2'F-ANA at 4 5 6 8 11 12	118 a.u.
2'F-ANA at 1 2 3 4 5 10 12 14	132 a.u.
2'F-ANA at 13 14 15	185 a.u.
2'F-ANA at 7 9 11 12	745 a.u.
2'F-ANA at 1 4 6 8 10 12 13	57.6 a.u.
2'F-ANA at 1 3 4 6 8 9 12 14	72.8 a.u.
2'F-ANA at 1 2 5 6 8 10 15	237 a.u.
2'F-ANA at 1 5 7 10 12	46.5 a.u.
2'F-ANA at 2 4 5 7 9 12 15	135 a.u.
2'F-ANA at 1 2 3 5 7 10 11 12 13	53 a.u.
2'F-ANA at 1 3 5 6 8 10 11 12 14	98.8 a.u.
2'F-ANA at 1 4 6 7 8 9 12 13 15	179 a.u.
2'F-ANA at 1 4 5 7 9 13	47.6 a.u.
2'F-ANA at 1 2 8 9 10	138 a.u.
2'F-ANA at 1 2 8 10 13 14	75.4 a.u.
2'F-ANA at 2 4 6 7 8 9 10 11 12 13 14 15	62.3 a.u.
2'F-ANA at 3 4 5 7 8 9 10 13 14	48.5 a.u.
2'F-ANA at 2 5 6 10 11 14 15	59.9 a.u.
2'F-ANA at 1 5 6 7 10 11 12 14 15	50.2 a.u.
2'F-ANA at 4 5 7 11 12 15	95.2 a.u.
2'F-ANA at 2 3 4 5 10 11 12	62.2 a.u.
2'F-ANA at 1 4 5 9 11 12	90 a.u.
2'F-ANA at 2 5 7 9 10 13 14 15	45.9 a.u.

Sample 3 — technique: RNAcompete; molecule type: RNA; medium: in vitro; concentration: 20 nM; setting: 7-mer, probes averaged, single round; reference: mean of 7-mers; reading: higher = stronger binding
Target: PABPC1L2, full length, GST fusion (mouse, UniProt A0ABA7IW68)
Residues (chain): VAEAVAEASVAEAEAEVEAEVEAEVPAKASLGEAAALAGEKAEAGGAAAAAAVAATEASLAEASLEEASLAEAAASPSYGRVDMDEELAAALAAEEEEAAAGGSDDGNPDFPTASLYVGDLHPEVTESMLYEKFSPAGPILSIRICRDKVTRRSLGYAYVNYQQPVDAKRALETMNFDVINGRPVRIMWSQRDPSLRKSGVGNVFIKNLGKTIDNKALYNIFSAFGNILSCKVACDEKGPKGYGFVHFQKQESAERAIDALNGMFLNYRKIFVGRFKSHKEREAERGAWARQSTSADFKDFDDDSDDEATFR
Strand	7-mer Z-score
CCGCCAG	-0.347
GUUCUCG	-0.441
GGGAUAC	0.441
GUAAAAC	1.61
CGGGGGG	0.263
AAGCCUC	-0.262
UGCACCG	-0.135
CGAUUUC	-0.365
CAUUCCU	-0.296
UCUCGGU	-0.36
GGCCCCU	-0.423
AUCGUUU	-0.501
CAGGAGG	0.365
GACUCCC	-0.293
GGGUCUG	-0.0301
CUAGUGG	-0.193
CGUUGUU	-0.376
GUUAUUC	-0.402
GACCCCA	-0.146
CAGCUCG	-0.324
ACGAGGU	0.1
CUAGAUU	-0.0989
GUAUUAC	-0.306
AAGUCGC	0.0243
GGUUACC	-0.0609

Sample 4 — technique: RNA Bind-n-Seq; molecule type: RNA; medium: in vitro; concentration: 200 nM; setting: whole 134-nt RNA, ends assumed; with: 150 mM LiCl; reference: input library; reading: higher = stronger binding; each molecule: 7-deaza-guanosine replaces G
Target: Fragile X messenger ribonucleoprotein 1, C-terminal low-complexity region (Fmr1, Mus musculus, UniProt P35922)
Constant ends, left off below: GGGAGUUCUACAGUCCGACGAUC … UGGAAUUCUCGGGUGUCAAGG
Strand	log2 enrichment
GUCCUGUGCUACACAUCGUAUGUACCGAAUCAAACCCCCCCAAAUUUAAAUUUUUAAAAAAGUAUUAUGUUACGCCGUUCGGAUCUGCAC	1.82
CUGUGCUACACAUCGUAUGUACCGAAUCGGGGAAAGGGGAAAAAAAGGGGUUUUUUUGGGGAAAGUAUUAUGUUACGCCGUUCGGAUCUG	-0.429
GCAGGAAGUAAAAACAAAUGGAAAUGCUUCGGAUAGUGGCAGGGGUGGGGGUUGCGAAGGAAAGGGUGGGAUGGGAGUGGGUAAAGAGUU	1.1
UGUGCUACACAUCGUAUGUACCGAAUCGGGGUUUUUUUGGGGAAAAAAAGGGGUUUUUGGGGAAAGUAUUAUGUUACGCCGUUCGGAUCU	-2.47
UCAAGUCCUGUGCUACACAUCGUAUGUACCGAAUCGGAGGUUUGGUUUUUUUGGAAAGUAUUAUGUUACGCCGUUCGGAUCUGCACUUCC	-0.836
CACAGACAACACGCACCCACACAGACAUAGAGGGAAGGGGUUGGGAUGGGGACAGGGUGCACAGCAGGGCGGGGUAGGACCCCAGCCCCU	0.311
UUAGAAGAAGAAGAUGGAGUGUGGGAGAAUGGACUUUCCUAUGAAUGCCGUACUCUGCUUUUCAAAGCAGUUCACAAUCUAUUGGAACGG	-3.42
UCCUGUGCUACACAUCGUAUGUACCGAAUCGGGAAAAAAGGAAAAAAGGGAAAAAAGGGGAAAGUAUUAUGUUACGCCGUUCGGAUCUGC	-0.898
ACCAUGCAGGUGGGCAUCUUUGGGAAGUGGGGCAAGGGGGGGAUAGGGAGGGGGGUAACACUUUGGGAACAGGUGGUCCCAGGUCGUCUC	1.57
UAACUUUAGGGGAGGAUCUGAUGGAUAUGGCAGUGGACGUGGAUUUGGGGAUGGCUAUAAUGGGUAUGGAGGAGGACCUGGAGGUGGCAA	0.372
GCAGGAAGUAAAAACAAAUGGAAAUGCUUCGGAUAGUGGCAGGGGUGGGGGUUGCUAAGGAAAGGAAAGGAUGGGAGUGGGUAAAGAGUU	1.68
